Results gathered from unrelated publications.
Numbered parts are unrelated; each lists some results of a single study.

Series 1
Target: PABPC1L2, full length, GST fusion (mouse, UniProt A0ABA7IW68)
Method: RNAcompete
Form: RNA
Medium: in vitro
Tested at: 20 nM
Setting: 7-mer, probes averaged, single round
Baseline: mean of 7-mers
Reading: higher = stronger binding
Quantity: 7-mer Z-score
Target sequence (chain): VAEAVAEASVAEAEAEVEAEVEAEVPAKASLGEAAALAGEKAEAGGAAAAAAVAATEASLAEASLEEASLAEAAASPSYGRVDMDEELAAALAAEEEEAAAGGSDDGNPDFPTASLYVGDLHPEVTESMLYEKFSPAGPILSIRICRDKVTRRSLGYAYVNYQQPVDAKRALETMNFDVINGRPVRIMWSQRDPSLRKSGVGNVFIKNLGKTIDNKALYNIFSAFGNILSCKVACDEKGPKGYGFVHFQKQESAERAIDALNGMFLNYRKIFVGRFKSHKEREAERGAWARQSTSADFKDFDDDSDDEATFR
AGUAAAC: 0.552
GUUGAGC: -0.255
GCCACGG: -0.0554
ACCUCUA: -0.195
AGCCCCC: -0.44
UGGCUAU: -0.0899
UAAUGGC: -0.229
AGCAAGG: 0.234
ACCACGG: 0.182
UGGUGCC: -0.05
CACCAAU: -0.251
GGUUAUC: -0.0844
CUUUGGC: -0.315
GUGAACA: 0.108
UCGUUGA: -0.296
AGAUAAU: -0.0373
ACCAGUU: -0.266
AAUUAUU: 0.149
CCCGCUA: -0.382
CUCCAAC: -0.264
ACCUUAG: -0.284
UGUCUAU: -0.324
GGCCCUC: -0.242
UGACAUC: -0.177
AAUCGCC: -0.304

Series 2
Target: Transcription factor SOX-2, HMG box (SOX2, Homo sapiens, UniProt P48431, residues 19-118)
Chain of UniProt P48431 (19-118, looked up): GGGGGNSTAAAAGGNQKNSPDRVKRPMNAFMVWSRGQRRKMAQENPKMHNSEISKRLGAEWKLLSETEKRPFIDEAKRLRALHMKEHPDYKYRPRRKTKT
Method: protein-binding microarray
Form: double-stranded DNA, one strand shown
Medium: in vitro
Tested at: not given
Setting: k-mer, scored over probes, only values ≥0.25
Reading: higher = stronger binding
Quantity: E-score
AATAATT: 0.456
TAAATGA: 0.273
AATCATT: 0.348
ATTGTAG: 0.351
AGAGAAT: 0.299
AAGCTGA: 0.315
CTCAATA: 0.252
ACAAAAT: 0.297
AATTTGT: 0.336
ACAATGT: 0.414
CTTTGTC: 0.272
ATTGTTC: 0.48
AAAAGAA: 0.266
AATATAG: 0.281
AGAATGA: 0.299
TAAACAA: 0.316
AATGAAT: 0.451
ATTGAGC: 0.266
AATTCAG: 0.37
AATATGA: 0.311
AACAATC: 0.435
AGATAAT: 0.373
AAAAGCT: 0.328
CCAATTA: 0.316
ATTTGTA: 0.278

Series 3
Target: RNA binding protein fox-1 homolog 2, RRM domain, GST-SBP tag (RBFOX2, Homo sapiens, UniProt O43251-10, residues 100-194)
Method: RNA Bind-n-Seq
Form: RNA
Medium: in vitro
Tested at: 365 nM
Setting: natural RNA segment, single round, ends assumed
Baseline: no-protein control
Reading: higher = stronger binding
Quantity: RBNS enrichment (R)
Constant ends, left off below: GGGAGUUCUACAGUCCGACGAUC … UGGAAUUCUCGGGUGCCAA
Construct (chain): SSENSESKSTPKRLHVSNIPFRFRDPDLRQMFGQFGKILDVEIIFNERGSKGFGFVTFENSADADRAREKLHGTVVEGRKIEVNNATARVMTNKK
ACGAUCAGGAAACCAACCAGGAAUCUCAGACAUCAGAAACCCUAGUAAAGAAGUGAAUGAGUGGCCAAAGUCUAUAGAGGCUUCCCUUUAGCAAGCCCUGAGAUAUAGUA: 2.57
UAAAGAGCAGCUAGGGAAGGAGAGAAACAGUGUCCUGGGUGAGACUUGGUAGAUACUGCUCCAAUAUCCUGUUGCUAGCCCCCACCUCCUUCUGGAACAGUGUGAGACAA: 0.27
UCCCCACAGCCUCCCCAGAUAGCUGUGUGCCUGUGCGCUACUGCUGUGCCAUUUUCCCAACUUGGCGUUUCACUAAAUGCAGCUGAUCUCUCUCUCUGUGCACUCGUGAU: 0.96
AUGUGUGUCUAAUGGCGAGCUGACAGCCCUCUGCUGAUAUUUGGCAGAAGGCACCAGACCAGCCCAGCAGCAAAUGCUCAUCUUUGGGAACAUAGGAAGCUUUACCUUGG: 0.206
AAGCUGCCCUCCUGAAAGGCAAGGGCGCCCCGCCCCCGGCCUUCCCCCAUGUACCCCCACCUGUGUUCCGUUUGACCAGCACAGAAAUAUUAAAGUCCUCUAUUUACCGG: 0.729
AGAACGAACAGUCAGAAGCAAGUGGAACUGAUAACGAUGACCAUCCUGGACGUGAGCUUCCCGCGGUGGCAGAACCGAAUGCUUUCUUCCCCCUCUCCUUCCUCCCCAGU: 8.42
GAAAUCUGACUAUCUGCUAGUUGCCAAAACCCAGAAACAUUCCUGUGUAAUGGUUAGUUGGGAAAGAAGGCAGCACUUGAAAAAAUUUACCAGGUUCCUCACUGGGAGAU: 0.482
CAUAAGAGGGAAGUCUUGGAUUUAGUUUUUUUCCAUACCCUUUUGAAAUUUGCAGCUUCUCUAGUUAGAAAUGUAUUUCUUACAGCUUUUUAAGACUUUGUCAUCCGUUC: 1.07
UUGUGACCUCUACUUUUUGUCACUAAUAGCCUACAUUCAAGUGCCUGUGUUUUUUCAUCUUGUUUAGGAAUGUUUUGAGAUUAAUGUGCUUAAAAGUCCUACGUGACUGA: 0.424
UGUGGCCUGGCAUCGCAUCGUGGUGUGUCAAUGCCACAAAAUCGUGUGUCCGUGGAACCAGUCCUAGCCGCGUGUGACAGUCUUGCAUUCUGUUUGUCUCGUGGGGGGAG: 1.45
CCAGAGAGGAGAGCCACUUACUGGCUUGUUCAGCUGCUUUCUUACAGAACAUAGCCUGCCAGCUCAUGGGUGCCAGUGGUUCUCAACUUGUGAGUUGCAACUCCUUUGUC: 0.384
UUUUAAGUGUUGAUGCUUUGUAGUACUACAAAGCUAAAUUGUGCAAACAAAACAUAUUUAACAGAGUAAUUGGGAGGAUAAAGCAAUAAUAAAUUCAAAUAUAUUUUUCU: 0.371

Series 4
Target: Fragile X messenger ribonucleoprotein 1, C-terminal low-complexity region (Fmr1, Mus musculus, UniProt P35922)
Method: RNA Bind-n-Seq
Form: RNA
Medium: in vitro
Tested at: 200 nM
Setting: whole 134-nt RNA, ends assumed
Added: 150 mM KCl
Baseline: input library
Reading: higher = stronger binding
Quantity: log2 enrichment
Constant ends, left off below: GGGAGUUCUACAGUCCGACGAUC … UGGAAUUCUCGGGUGUCAAGG
CAAGUCCUGUGCUACACAUCGUAUGUACCGAAUCGGGCCCGGCCCGGGGCCCGGGAAAGUAUUAUGUUACGCCGUUCGGAUCUGCACUUC: -0.486
CCUGUGCUACACAUCGUAUGUACCGAAUCGGGGAAAGGGGUUUUUGGGGUUUUUUUGGGGAAAGUAUUAUGUUACGCCGUUCGGAUCUGC: 0.34
UGCCUGCUCCGGGCCCCGUGCUGGCGCCUACGCACCUGCAGACAGAGCUGGUGCUGAGGUGCCAGAAGGAGACCGACUGUGACCUCUGUC: -1.27
GUCCUGUGCUACACAUCGUAUGUACCGAAUCGGGCCCCCGGGCCCCCGGGCCCCCGGGGAAAGUAUUAUGUUACGCCGUUCGGAUCUGCA: -0.827
UCAAGUCCUGUGCUACACAUCGUAUGUACCGAAUCGGAAAGGUUUUUUUGGUGGAAAGUAUUAUGUUACGCCGUUCGGAUCUGCACUUCC: -0.659
UCUAGAUACAGAUGCACGAUUUGGCCAUGGAUCCGACUACUCUCGCCAACAGAACAGAUUUAAUGACUUUGAUCACCGAGAGAGGGGCAG: -0.321
GUCCUGUGCUACACAUCGUAUGUACCGAAUCAAACCCCCAAAUUUUUUUAAAUUUAAAAAAGUAUUAUGUUACGCCGUUCGGAUCUGCAC: 0.274
UCCUCAAGUCCUGUGCUACACAUCGUAUGUACCGAAUCGGUGGUGGUUUGGAAAGUAUUAUGUUACGCCGUUCGGAUCUGCACUUCCAGC: -0.258
CACAGACAACACGCACCCACACAGACACAGAGGGAAAAGGUUGGGAUGGGGACAGGGUGCACAGCAGGGCGGGGUAGGACCCCAGCCCCU: 1.48
UCCUCAAGUCCUGUGCUACACAUCGUAUGUACCGAAUCGGGGAGGGAGGAGGAAAGUAUUAUGUUACGCCGUUCGGAUCUGCACUUCCAG: 0.346

Series 5
Target: Sal-like protein 4, full length isoform A (SALL4, Homo sapiens, UniProt Q9UJQ4, residues 1-1053)
Chain of UniProt Q9UJQ4 (whole entry, looked up): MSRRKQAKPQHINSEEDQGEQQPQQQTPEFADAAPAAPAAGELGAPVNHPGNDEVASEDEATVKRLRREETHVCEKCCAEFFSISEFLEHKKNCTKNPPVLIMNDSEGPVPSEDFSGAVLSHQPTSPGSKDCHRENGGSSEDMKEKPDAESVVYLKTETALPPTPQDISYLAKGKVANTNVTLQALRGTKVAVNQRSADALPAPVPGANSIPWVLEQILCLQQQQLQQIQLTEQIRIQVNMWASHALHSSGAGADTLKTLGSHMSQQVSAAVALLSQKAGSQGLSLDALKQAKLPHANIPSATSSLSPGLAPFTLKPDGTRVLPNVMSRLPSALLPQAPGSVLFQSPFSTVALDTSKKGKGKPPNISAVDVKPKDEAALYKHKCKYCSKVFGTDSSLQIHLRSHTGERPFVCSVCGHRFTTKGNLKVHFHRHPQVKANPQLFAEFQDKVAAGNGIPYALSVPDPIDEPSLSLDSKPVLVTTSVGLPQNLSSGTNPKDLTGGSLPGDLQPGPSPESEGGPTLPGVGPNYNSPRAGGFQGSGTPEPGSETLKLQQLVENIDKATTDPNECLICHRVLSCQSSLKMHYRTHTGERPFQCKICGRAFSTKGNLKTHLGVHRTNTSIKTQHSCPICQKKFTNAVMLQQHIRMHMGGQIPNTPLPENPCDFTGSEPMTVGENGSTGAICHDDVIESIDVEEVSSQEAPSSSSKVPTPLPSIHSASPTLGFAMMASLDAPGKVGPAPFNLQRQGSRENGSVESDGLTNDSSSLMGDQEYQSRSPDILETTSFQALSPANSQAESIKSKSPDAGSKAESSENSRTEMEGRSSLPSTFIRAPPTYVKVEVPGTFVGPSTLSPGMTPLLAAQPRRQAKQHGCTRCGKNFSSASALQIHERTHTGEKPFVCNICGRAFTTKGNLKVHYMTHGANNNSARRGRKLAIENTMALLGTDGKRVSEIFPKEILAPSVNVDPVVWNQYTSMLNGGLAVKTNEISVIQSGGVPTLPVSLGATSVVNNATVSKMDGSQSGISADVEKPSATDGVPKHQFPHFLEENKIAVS
Method: universal PBM
Form: double-stranded DNA, one strand shown
Medium: in vitro
Tested at: 600 nM
Setting: 8-mer, flanks averaged, mean of replicates
Reading: higher = stronger binding
Quantity: E-score
CTCCTGCA: -0.115
CAGTTAGA: -0.0489
TACTATGA: 0.271
GAGCGACA: 0.0102
GTTGGCGA: -0.0978
AAAATACG: 0.237
AAGGTTGG: -0.0785
CTCAATTA: 0.236
GATCAAGC: -0.0869
AAGTATTG: 0.22
GCTGGATA: 0.0981
CTTGACAA: 0.127
AGGGCCCA: -0.372
ATCAAGAT: 0.202
CGGCAGAA: -0.191
GCACAGTA: 0.0442
ACGATTTC: 0.202
GATAGGAC: -0.135
AAACGGAG: -0.0307

Excerpt of the above (series 5):
GCACAGTA: 0.0442
AGGGCCCA: -0.372
ATCAAGAT: 0.202
GATAGGAC: -0.135
GCTGGATA: 0.0981
AAGGTTGG: -0.0785
TACTATGA: 0.271
GAGCGACA: 0.0102
AAGTATTG: 0.22
GATCAAGC: -0.0869
GTTGGCGA: -0.0978
CTCAATTA: 0.236
CTTGACAA: 0.127
ACGATTTC: 0.202
CGGCAGAA: -0.191
